Published values of several laboratories.
Protocols differ between the studies behind these lines. Values joined by “and” are separate records of one study, mostly repeats; a detail may differ. Numbers after ± are the reported error.

Structure (SMILES)	assay	system	setting	scale	endpoint	result
CC(C)C[C@H](NC(=O)[C@H](Cc1ccc(O)cc1)NC(=O)CNC(=O)CNC(=O)CNC(=O)[C@H](Cc1c[nH]cn1)NC(=O)[C@H](Cc1c[nH]cn1)NC(=O)[C@@H](NC(=O)CNC(=O)[C@H](Cc1c[nH]cn1)NC(=O)[C@H](Cc1ccccc1)NC(=O)[C@H](CC(C)C)NC(=O)[C@H](CC(C)C)NC(=O)[C@H](CCCNC(=N)N)NC(=O)[C@H](Cc1ccccc1)NC(=O)[C@@H](N)Cc1ccccc1)C(C)C)C(=O)N[C@@H](CC(N)=O)C(=O)N[C@@H](C)C(=O)N[C@@H](C)C(N)=O	–	zebrafish embryos 4 hpf, E3 medium	24 h	–	chronic toxic concentration	25 µM
CC[C@H](C)[C@H](NC(=O)[C@H](CCCCN)NC(=O)CNC(=O)[C@H](CC(C)C)NC(=O)[C@H](Cc1ccccc1)NC(=O)[C@H](CCCCN)NC(=O)[C@H](CO)NC(=O)[C@H](Cc1ccccc1)NC(=O)[C@H](Cc1c[nH]c2ccccc12)NC(=O)[C@H](CCC(N)=O)NC(=O)[C@@H](NC(=O)[C@H](Cc1ccccc1)NC(=O)CCCCCNC(=O)CN1CCN(CC(=O)O)CCN(CC(=O)O)CCN(CC(=O)O)CC1)C(C)C)C(=O)N[C@@H](CCC(=O)O)C(=O)N1CCC[C@H]1C(=O)N[C@@H](CC(=O)O)C(=O)N[C@H](C(=O)N[C@@H](CO)C(=O)N[C@@H](CCC(N)=O)C(=O)N[C@H](C(=O)N[C@@H](CCC(N)=O)C(=O)N[C@@H](CC(=O)O)C(=O)N1CCC[C@H]1C(=O)N[C@@H](CC(N)=O)C(=O)N[C@@H](CC(=O)O)C(=O)N[C@@H](CCC(N)=O)C(=O)N[C@@H](Cc1ccc(O)cc1)C(=O)N[C@@H](CCC(=O)O)C(=O)N1CCC[C@H]1C(=O)N[C@@H](Cc1ccccc1)C(=O)O)C(C)C)C(C)C [copper-64 labelled]	–	GZMB-/- mice, CT26 tumour-bearing, bone	2 h, vehicle-treated	–	tissue uptake	0.48 ± 0.09 %ID/g
CCCCCCCCCCCCCCCC(=O)N[C@@H](CCC(=O)NCCCC[C@H](NC(=O)[C@H](CC(=O)O)NC(=O)[C@H](CO)NC(=O)[C@@H](NC(=O)[C@H](Cc1ccccc1)NC(=O)[C@@H](NC(=O)CNC(=O)[C@H](CCC(N)=O)NC(=O)[C@H](C)NC(=O)[C@@H](Cc1ccc(O)cc1)NC(C)=O)[C@@H](C)O)[C@@H](C)O)C(=O)N[C@@H](CO)C(=O)N[C@@H](CCCCN)C(=O)N[C@@H](Cc1ccc(O)cc1)C(=O)N[C@@H](CC(C)C)C(=O)N[C@@H](CC(=O)O)C(=O)N[C@@H](CCC(=O)O)C(=O)N[C@@H](CCCNC(=N)N)C(=O)N[C@@H](C)C(=O)N[C@@H](C)C(=O)N[C@@H](CCC(N)=O)C(=O)N[C@@H](CC(=O)O)C(=O)N[C@@H](Cc1ccccc1)C(=O)N[C@H](C(=O)N[C@@H](CCC(N)=O)C(=O)N[C@@H](Cc1c[nH]c2ccccc12)C(=O)N[C@@H](CC(C)C)C(=O)N[C@@H](CC(C)C)C(=O)N[C@@H](CCC(=O)O)C(=O)NCC(=O)NCC(=O)N1CCC[C@H]1C(=O)N[C@@H](CO)C(=O)N[C@@H](CO)C(=O)NCC(=O)N[C@@H](C)C(=O)N1CCC[C@H]1C(=O)N1CCC[C@H]1C(=O)N1CCC[C@H]1C(=O)N[C@@H](CO)C(N)=O)C(C)C)C(=O)O	–	male cynomolgus monkey, plasma	subcutaneous, 0.0211 mg/kg	–	Cmax	76.3 ng/mL
COc1cnc2cccc(N3CCc4c(cc(Cn5ccnc5)cc4-c4cn(C)nc4C(F)(F)F)C3=O)c2c1	–	BALB/c nude mice, MV4-11 xenograft	intraperitoneal, 50 mg/kg, day 17	–	body weight	20.5 g and 21.2 g and 22.3 g and 23.8 g and 23.6 g
CCCC[C@H]1C(=O)N(C)[C@@H](CCCC)C(=O)N[C@@H](CCCNC(=O)CN2CCN(CC(=O)O)CCN(CC(=O)O)CCN(CC(=O)O)CC2)C(=O)N[C@H](C(=O)NCC(N)=O)CSCC(=O)N[C@@H](Cc2ccc(O)cc2)C(=O)N(C)[C@@H](C)C(=O)N[C@@H](CC(N)=O)C(=O)N2CCC[C@H]2C(=O)N[C@@H](Cc2c[nH]cn2)C(=O)N[C@@H](CC(C)C)C(=O)N(C)CC(=O)N[C@@H](Cc2c[nH]c3ccccc23)C(=O)N[C@@H](CO)C(=O)N[C@@H](Cc2c[nH]c3ccccc23)C(=O)N1C [gallium-68 labelled]	–	NOD/SCID mice, CHO-hPD-L1 xenograft, lung	60 min, PBS pretreatment	–	tissue uptake	5.66 ± 0.73 %ID/g
CCCCCCCCCCCCCCCC(=O)N[C@@H](CCC(=O)NCCOCCOCCC(=O)NCCOCCOCCC(=O)NCCCC[C@H](NC(=O)[C@H](CC(=O)O)NC(=O)[C@H](CC(C)C)NC(=O)[C@H](Cc1ccc(O)cc1)NC(=O)[C@H](CCCCN)NC(=O)[C@H](CO)NC(=O)[C@H](Cc1ccc(O)cc1)NC(=O)[C@H](CC(=O)O)NC(=O)[C@H](CO)NC(=O)[C@@H](NC(=O)[C@H](Cc1ccccc1)NC(=O)[C@@H](NC(=O)CNC(=O)[C@H](CCC(N)=O)NC(=O)[C@@H](CO)NC(=O)[C@@H](N)Cc1c[nH]cn1)[C@@H](C)O)[C@@H](C)O)C(=O)N[C@@H](CCCNC(=N)N)C(=O)N[C@@H](CCCNC(=N)N)C(=O)N[C@@H](C)C(=O)N[C@@H](CCC(N)=O)C(=O)N[C@@H](CC(=O)O)C(=O)N[C@@H](Cc1ccccc1)C(=O)N[C@H](C(=O)N[C@@H](CCC(N)=O)C(=O)N[C@@H](Cc1c[nH]c2ccccc12)C(=O)N[C@@H](CC(C)C)C(=O)N[C@@H](CC(C)C)C(=O)N[C@@H](CC(N)=O)C(=O)N[C@H](C(=O)NCC(=O)NCC(=O)N1CCC[C@H]1C(=O)N[C@@H](CO)C(=O)N[C@@H](CO)C(=O)NCC(=O)N[C@@H](C)C(=O)N1CCC[C@H]1C(=O)N1CCC[C@H]1C(=O)N1CCC[C@H]1C(=O)N[C@@H](CO)C(N)=O)[C@@H](C)O)C(C)C)C(=O)O	–	Sprague-Dawley rat, male	subcutaneous, 500 µg/kg once daily, 14 days	–	total bilirubin	1.4 ± 0.2 µmol/L
C=CC(=O)Nc1cccc(Cn2ncc3cnc(Nc4cnn(CCOC)c4)nc32)c1	–	female Sprague-Dawley rat	oral, 180 mg/kg/day, day 28, 28-day subacute toxicity	–	serum LDL	0.1 ± 0.04 mM
CC(C)N1CCCCC1C(=O)NC(Cc1ccc(-c2ccccc2)cc1)B(O)O (centres unmarked)	–	male Sprague-Dawley rats, plasma	intravenous, 1 mg/kg, 24 h, citrate ester	–	AUC(0-t)	2.07 µM·h
CCN(CC)CCOc1ccc(-c2nnn(Cc3ccc(OC)cc3)c2N)cc1	–	rat hepatocytes	concentration not given, time not given	–	remaining compound	37%
O=C1NC2(CC2)COc2ncc(F)cc2[C@H]2COCCN2c2ccn3ncc1c3n2	–	Sprague-Dawley rat, female, blood	oral, 20 mg/kg/day, 4 weeks, end of treatment, subacute toxicity	–	monocyte percentage	4.5 ± 1%
COC(=O)[C@H]1[C@@H](c2ccc(Cl)c(Cl)c2)C[C@@H]2CC[C@H]1N2Cc1c2ccccc2cc2ccccc12	fluorometric titration	–	1 µM, 10% DMSO	–	pKa	4.8
NC1CCN(C(=O)Oc2ccc(C3CCCC4(C3)OOC3(O4)C4CC5CC(C4)CC3C5)cc2)CC1 (racemic)	–	male ICR mice, plasma	oral, 50 mg/kg	–	AUC(0-t)	6250 ng·h/mL
CN[C@H](CC(C)C)C(=O)N[C@H]1C(=O)N[C@@H](CC(N)=O)C(=O)N[C@H]2C(=O)N[C@H]3C(=O)N[C@H](C(=O)N[C@H](C(=O)O)c4cc(O)cc(O)c4-c4cc3ccc4O)[C@H](O)c3ccc(c(Cl)c3)Oc3cc2cc(c3O[C@@H]2O[C@H](CO)[C@@H](O)[C@H](O)[C@H]2O[C@H]2C[C@](C)(NCc3ccc(-c4ccc(Cl)cc4)cc3)[C@H](O)[C@H](C)O2)Oc2ccc(cc2Cl)[C@H]1O	–	mouse, plasma	intravenous, 10 mg/kg	–	AUC	135000 ng·h/mL
CC(CCC(=O)NCC(=O)O)C1CCC2C3C(O)CC4CC(OC5OC(C(=O)O)C(O)C(O)C5O)CCC4(C)C3CCC12C (centres unmarked)	–	human women	dose not given, SLCO1B1 *5/*14	–	plasma concentration	19.5 ng/mL
Cn1nc(NS(C)(=O)=O)c2c(Cl)ccc(-n3c([C@H](Cc4cc(F)cc(F)c4)NC(=O)Cn4nc(C(F)F)c5c4C(F)(F)[C@@H]4C[C@H]54)nc4nc(OCCC(F)(F)F)ccc4c3=O)c21	–	human, plasma	oral, 200 mg single dose, tablet, geometric mean	–	AUC(0-inf)	6390 ng·h/mL
CSCC[C@H](N)C(=O)N[C@@H](C)C(=O)N[C@@H](Cc1c[nH]c2ccccc12)C(=O)N[C@@H](Cc1c[nH]cn1)C(=O)N[C@@H](CC(=O)O)C(=O)N[C@@H](CC(=O)O)C(=O)N[C@@H](CCC(=O)O)C(=O)N[C@@H](CCC(=O)O)C(=O)N[C@@H](Cc1ccccc1)C(=O)N[C@@H](C)C(=O)N[C@@H](CCCNC(=N)N)C(=O)N[C@@H](CCCNC(=N)N)C(=O)N[C@@H](CCCNC(=N)N)C(=O)N[C@@H](CCCNC(=N)N)C(=O)NCCCCCC(=O)NCCCCC(NC(=O)CCCCCNC(=O)[C@H](CCCNC(=N)N)NC(=O)[C@H](CCCNC(=N)N)NC(=O)[C@H](CCCNC(=N)N)NC(=O)[C@H](CCCNC(=N)N)NC(=O)[C@H](C)NC(=O)[C@H](Cc1ccccc1)NC(=O)[C@H](CCC(=O)O)NC(=O)[C@H](CCC(=O)O)NC(=O)[C@H](CC(=O)O)NC(=O)[C@H](CC(=O)O)NC(=O)[C@H](Cc1c[nH]cn1)NC(=O)[C@H](Cc1c[nH]c2ccccc12)NC(=O)[C@H](C)NC(=O)[C@@H](N)CCSC)C(=O)NCCCCC(NC(=O)C(CCCCNC(=O)CCCCCNC(=O)[C@H](CCCNC(=N)N)NC(=O)[C@H](CCCNC(=N)N)NC(=O)[C@H](CCCNC(=N)N)NC(=O)[C@H](CCCNC(=N)N)NC(=O)[C@H](C)NC(=O)[C@H](Cc1ccccc1)NC(=O)[C@H](CCC(=O)O)NC(=O)[C@H](CCC(=O)O)NC(=O)[C@H](CC(=O)O)NC(=O)[C@H](CC(=O)O)NC(=O)[C@H](Cc1c[nH]cn1)NC(=O)[C@H](Cc1c[nH]c2ccccc12)NC(=O)[C@H](C)NC(=O)[C@@H](N)CCSC)NC(=O)CCCCCNC(=O)[C@H](CCCNC(=N)N)NC(=O)[C@H](CCCNC(=N)N)NC(=O)[C@H](CCCNC(=N)N)NC(=O)[C@H](CCCNC(=N)N)NC(=O)[C@H](C)NC(=O)[C@H](Cc1ccccc1)NC(=O)[C@H](CCC(=O)O)NC(=O)[C@H](CCC(=O)O)NC(=O)[C@H](CC(=O)O)NC(=O)[C@H](CC(=O)O)NC(=O)[C@H](Cc1c[nH]cn1)NC(=O)[C@H](Cc1c[nH]c2ccccc12)NC(=O)[C@H](C)NC(=O)[C@@H](N)CCSC)C(N)=O (some centres unmarked)	–	C57BL/6 mouse female, lungs	dose not given, 3 h	relative to: total	tissue distribution	2.32% and 2.15% and 1.95%
N#[11C]c1ccc(-c2csc(NN=C3CCCC3)n2)cc1	–	C57BL/6 mice, male, lung	intravenous, 3 MBq, 5 min	–	radioactivity uptake	7.74 ± 0.16 %ID/g

A few entries again:
Structure (SMILES)	assay	system	setting	scale	endpoint	result
NC1CCN(C(=O)Oc2ccc(C3CCCC4(C3)OOC3(O4)C4CC5CC(C4)CC3C5)cc2)CC1 (racemic)	–	male ICR mice, plasma	oral, 50 mg/kg	–	AUC(0-t)	6250 ng·h/mL
